# Experimental data pooled from the literature.
# Numbers after ± are the reported error.
# ribH: 6,7-dimethyl-8-ribityllumazine synthase (ribH, Mycobacterium tuberculosis, UniProt P9WHE9)
# Chain of UniProt P9WHE9 (whole entry, looked up): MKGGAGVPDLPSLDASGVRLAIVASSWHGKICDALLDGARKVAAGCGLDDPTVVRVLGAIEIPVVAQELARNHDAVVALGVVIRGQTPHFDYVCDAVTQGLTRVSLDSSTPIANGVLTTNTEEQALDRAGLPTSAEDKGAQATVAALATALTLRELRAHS
# SLC6A4: Sodium-dependent serotonin transporter (SLC6A4, Homo sapiens, UniProt P31645)
# Chain of UniProt P31645 (whole entry, looked up): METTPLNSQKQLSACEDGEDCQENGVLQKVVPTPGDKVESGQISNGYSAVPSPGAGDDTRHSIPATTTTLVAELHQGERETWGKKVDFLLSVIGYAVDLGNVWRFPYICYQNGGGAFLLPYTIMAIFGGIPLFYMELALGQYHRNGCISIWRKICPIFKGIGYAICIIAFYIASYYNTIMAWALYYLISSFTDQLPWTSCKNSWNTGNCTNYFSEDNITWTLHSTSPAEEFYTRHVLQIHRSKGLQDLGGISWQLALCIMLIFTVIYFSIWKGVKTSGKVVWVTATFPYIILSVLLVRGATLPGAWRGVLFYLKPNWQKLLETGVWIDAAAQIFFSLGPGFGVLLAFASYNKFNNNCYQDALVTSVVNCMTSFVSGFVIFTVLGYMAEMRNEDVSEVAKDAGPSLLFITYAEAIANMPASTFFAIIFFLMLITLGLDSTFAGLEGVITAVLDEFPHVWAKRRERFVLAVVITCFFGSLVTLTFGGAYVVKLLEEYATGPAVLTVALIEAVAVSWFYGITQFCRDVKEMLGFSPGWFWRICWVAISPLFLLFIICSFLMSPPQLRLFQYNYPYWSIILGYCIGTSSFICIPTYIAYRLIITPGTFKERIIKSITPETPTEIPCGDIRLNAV
# OPRD1: Delta-type opioid receptor (OPRD1, Homo sapiens, UniProt P41143)
# Chain of UniProt P41143 (whole entry, looked up): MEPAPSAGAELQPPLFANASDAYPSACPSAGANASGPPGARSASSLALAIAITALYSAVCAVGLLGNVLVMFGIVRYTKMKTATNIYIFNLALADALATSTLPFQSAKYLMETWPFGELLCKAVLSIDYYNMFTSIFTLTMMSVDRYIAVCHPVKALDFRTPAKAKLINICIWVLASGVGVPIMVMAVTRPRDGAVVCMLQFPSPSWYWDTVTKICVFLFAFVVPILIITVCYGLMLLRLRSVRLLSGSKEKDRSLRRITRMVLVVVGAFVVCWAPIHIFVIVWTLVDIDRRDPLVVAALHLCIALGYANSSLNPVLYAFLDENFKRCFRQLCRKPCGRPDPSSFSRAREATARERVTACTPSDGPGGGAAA
# HTR2C: 5-hydroxytryptamine receptor 2C (HTR2C, Homo sapiens, UniProt P28335)
# Chain of UniProt P28335 (whole entry, looked up): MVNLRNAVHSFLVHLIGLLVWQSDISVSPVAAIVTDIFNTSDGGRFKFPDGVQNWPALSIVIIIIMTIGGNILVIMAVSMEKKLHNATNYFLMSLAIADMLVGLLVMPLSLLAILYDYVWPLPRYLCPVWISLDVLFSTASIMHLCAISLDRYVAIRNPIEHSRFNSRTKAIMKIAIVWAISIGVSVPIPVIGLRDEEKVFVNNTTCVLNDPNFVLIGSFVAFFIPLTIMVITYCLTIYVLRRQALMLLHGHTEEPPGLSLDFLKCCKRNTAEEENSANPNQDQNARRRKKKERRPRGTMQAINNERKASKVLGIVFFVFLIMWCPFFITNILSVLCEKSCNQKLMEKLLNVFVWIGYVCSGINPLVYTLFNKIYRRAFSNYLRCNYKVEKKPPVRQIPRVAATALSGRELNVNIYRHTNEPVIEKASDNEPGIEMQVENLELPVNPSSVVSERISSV
# Chain of UniProt P29804 (whole entry, looked up): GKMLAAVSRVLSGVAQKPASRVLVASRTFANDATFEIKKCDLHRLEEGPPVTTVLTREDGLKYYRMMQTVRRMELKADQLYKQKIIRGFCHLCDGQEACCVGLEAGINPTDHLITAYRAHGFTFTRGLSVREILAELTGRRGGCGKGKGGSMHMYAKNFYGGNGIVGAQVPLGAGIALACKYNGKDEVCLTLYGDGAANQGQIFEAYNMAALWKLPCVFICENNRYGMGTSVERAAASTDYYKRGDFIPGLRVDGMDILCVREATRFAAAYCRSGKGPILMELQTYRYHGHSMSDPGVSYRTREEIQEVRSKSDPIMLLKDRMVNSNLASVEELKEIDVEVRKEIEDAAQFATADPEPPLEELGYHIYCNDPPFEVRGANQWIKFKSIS
# Chain of UniProt P09483 (whole entry, looked up): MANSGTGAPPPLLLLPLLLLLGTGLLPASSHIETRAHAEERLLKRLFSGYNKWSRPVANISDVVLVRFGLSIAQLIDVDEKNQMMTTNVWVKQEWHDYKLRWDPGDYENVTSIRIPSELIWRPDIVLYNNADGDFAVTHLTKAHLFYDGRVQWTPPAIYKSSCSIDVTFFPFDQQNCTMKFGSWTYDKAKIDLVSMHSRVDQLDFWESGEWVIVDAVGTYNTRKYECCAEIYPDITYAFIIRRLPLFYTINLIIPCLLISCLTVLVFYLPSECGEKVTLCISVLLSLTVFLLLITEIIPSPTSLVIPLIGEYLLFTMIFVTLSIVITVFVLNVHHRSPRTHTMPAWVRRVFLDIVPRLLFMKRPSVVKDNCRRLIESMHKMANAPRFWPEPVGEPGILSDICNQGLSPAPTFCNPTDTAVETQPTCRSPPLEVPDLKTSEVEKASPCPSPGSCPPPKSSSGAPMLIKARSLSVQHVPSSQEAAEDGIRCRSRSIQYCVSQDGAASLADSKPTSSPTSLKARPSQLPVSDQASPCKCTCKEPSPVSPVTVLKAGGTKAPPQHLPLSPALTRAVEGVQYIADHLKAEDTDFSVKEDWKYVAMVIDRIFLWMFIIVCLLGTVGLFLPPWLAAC
# Chain of UniProt P12390 (whole entry, looked up): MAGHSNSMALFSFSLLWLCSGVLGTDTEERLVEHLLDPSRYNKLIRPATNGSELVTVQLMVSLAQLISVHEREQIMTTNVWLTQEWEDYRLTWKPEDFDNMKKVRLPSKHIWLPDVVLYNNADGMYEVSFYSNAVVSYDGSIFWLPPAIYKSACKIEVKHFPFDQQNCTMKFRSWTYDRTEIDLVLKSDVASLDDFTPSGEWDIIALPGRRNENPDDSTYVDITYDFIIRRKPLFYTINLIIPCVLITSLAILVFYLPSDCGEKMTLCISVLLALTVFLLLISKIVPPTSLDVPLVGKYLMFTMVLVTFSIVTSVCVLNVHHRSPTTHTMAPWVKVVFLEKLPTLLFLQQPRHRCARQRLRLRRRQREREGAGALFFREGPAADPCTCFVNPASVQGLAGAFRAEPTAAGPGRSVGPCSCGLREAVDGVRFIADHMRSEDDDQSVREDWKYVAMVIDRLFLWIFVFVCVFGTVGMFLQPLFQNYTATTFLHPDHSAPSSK
# Chain of UniProt P28223 (whole entry, looked up): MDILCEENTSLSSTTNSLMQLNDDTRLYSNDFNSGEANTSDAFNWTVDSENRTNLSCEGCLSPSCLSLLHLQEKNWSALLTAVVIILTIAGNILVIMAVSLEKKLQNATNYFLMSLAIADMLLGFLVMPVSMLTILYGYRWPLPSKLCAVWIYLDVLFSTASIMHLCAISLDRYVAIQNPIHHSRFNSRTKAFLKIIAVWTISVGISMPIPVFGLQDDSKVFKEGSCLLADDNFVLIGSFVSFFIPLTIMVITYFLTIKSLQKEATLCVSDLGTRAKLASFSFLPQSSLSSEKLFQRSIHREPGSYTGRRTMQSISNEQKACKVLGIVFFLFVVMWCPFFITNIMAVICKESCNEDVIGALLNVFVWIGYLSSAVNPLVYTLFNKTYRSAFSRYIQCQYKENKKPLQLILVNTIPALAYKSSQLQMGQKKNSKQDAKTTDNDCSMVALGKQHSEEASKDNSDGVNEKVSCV
Compound,target or system,test,system,conditions,endpoint,result
CCC(=O)Nc1c(SC[C@H](O)[C@H](O)[C@H](O)CO)[nH]c(=O)[nH]c1=O,ribH,inhibitor,,"pH 7.0, together with: substrate 1 varied, other substrate 2 constant",Ki,128 ± 31 µM
CNC(C)Cc1ccc2c(c1)OCO2 (centres unmarked),SLC6A4,"ligand displacement, radioligand",,cell membranes,Ki,17.5 µM
CN[C@@](C)(C[18F])C(=O)O,A549 tumour model,,"host not given, lung","30 min, tumour-bearing",tracer uptake,2.9 %ID/g
CCC(C(=O)c1ccc2c(c1)OCO2)N(C)C (centres unmarked),SLC6A4,"ligand displacement, radioligand",,cell membranes,Ki,> 10 µM
O=c1[nH]c(/C=C/c2cccnc2)c([N+](=O)[O-])c(=O)[nH]1,ribH,"enzyme activity, inhibitor",,pH 7.0,Ki,26 ± 11 µM
COc1cc(C(=O)N[C@@H]2CC[C@@]3(O)[C@H]4Cc5cccc6c5[C@@]3(CCN4CC3CC3)[C@H]2O6)ccn1,OPRD1,"ligand displacement, radioligand",,cell membranes,Ki,5.9 µM
NC(=O)c1cccnc1,Halyomorpha halys Nan-Iav,,,,Ki,108 µM
COc1cc(CCNCc2ccccc2OC)c(OC)cc1C,HTR2C,"ligand displacement, radioligand",,,Ki,0.00069 µM
N#Cc1cc(C(=O)N[C@@H]2CC[C@@]3(O)[C@H]4Cc5cccc6c5[C@@]3(CCN4CC3CC3)[C@H]2O6)ccn1,OPRD1,"ligand displacement, radioligand",,cell membranes,Ki,3.38 µM
Fc1ncccc1OC[C@@H]1C=CCN1,"Neuronal acetylcholine receptor; alpha4/beta2 (Rattus norvegicus, UniProt P09483+P12390)",radioligand binding,rat brain cortex,together with: [3H]epibatidine,Ki,0.00107 µM
COc1cc([N+](=O)[O-])c(OC)cc1CCNCc1ccccc1OC,"HTR2A (Homo sapiens, UniProt P28223)","ligand displacement, radioligand",,,Ki,0.000144 µM
O=C(N[C@@H]1CC[C@@]2(O)[C@H]3Cc4cccc5c4[C@@]2(CCN3CC2CC2)[C@H]1O5)c1ccnc(Br)c1,OPRD1,"ligand displacement, radioligand",,cell membranes,Ki,2.09 µM
CCc1cc(OC)c(CCNCc2ccccc2OC)cc1OC,HTR2C,"ligand displacement, radioligand",,,Ki,0.000311 µM
O=C(N[C@@H]1CC[C@@]2(O)[C@H]3Cc4cccc5c4[C@@]2(CCN3CC2CC2)[C@H]1O5)c1ccnc(Cl)c1,OPRD1,"ligand displacement, radioligand",,cell membranes,Ki,2.12 µM
CCNC(C)C(=O)c1ccc(Cl)cc1 (centres unmarked),SLC6A4,"ligand displacement, radioligand",,cell membranes,Ki,7.9 µM
Cc1cc(C(=O)N[C@@H]2CC[C@@]3(O)[C@H]4Cc5cccc6c5[C@@]3(CCN4CC3CC3)[C@H]2O6)ccn1,OPRD1,"ligand displacement, radioligand",,cell membranes,Ki,3.65 µM
CCCOP(=O)(O)C(C)=O,"Pyruvate dehydrogenase E1 (Sus scrofa, UniProt F1SGH5+P29804)","enzyme activity, inhibitor, NADH formation",,,Ki,62 ± 8 µM

# Excerpt of the above:
Compound,target or system,test,system,conditions,endpoint,result
COc1cc([N+](=O)[O-])c(OC)cc1CCNCc1ccccc1OC,"HTR2A (Homo sapiens, UniProt P28223)","ligand displacement, radioligand",,,Ki,0.000144 µM
CCCOP(=O)(O)C(C)=O,"Pyruvate dehydrogenase E1 (Sus scrofa, UniProt F1SGH5+P29804)","enzyme activity, inhibitor, NADH formation",,,Ki,62 ± 8 µM
